Published values gathered from unrelated publications.
Values joined by “and” are separate records of one study, mostly repeats; a detail may differ.
Target: Cyclin-G-associated kinase (GAK, Homo sapiens, UniProt O14976)

`C=CC(=O)N1CCCC(n2c(=O)c3ncccc3n(Cc3ccc(Oc4ccccc4)cc3)c2=O)C1` (stereo not drawn) gave a remaining binding of 100% (cell-free assay, competition with immobilised ligand; 1 µM).
With `CCN1CCN(Cc2ccc(NC(=O)c3ccc(C)c(NC(=O)c4cncc(-c5cccs5)c4)c3)cc2C(F)(F)F)CC1` the remaining binding was 1% (binding, competition with immobilised ligand; 1 µM).
With `C[C@H]1CN(C(=O)c2cn(-c3ccnc(N)n3)c3cc(C#CC4(O)CCCCC4)ccc23)CCN1` the inhibition was 3% (cell-free assay, TR-FRET; 1 µM).
For `C=CC(=O)N1Cc2nc(-c3cc(-c4cc(Cl)cnc4Cl)c(F)cc3F)n(-c3ccncn3)c2C1`, the inhibition was 7.8% (cell-free assay, inhibitor; 1 µM).
The inhibition of `CN1CCN(Cc2ccc(-c3ccc(CO[C@H]4CCC[C@@H]4NC(=O)c4cc(-c5cnn(C)c5)cnc4N)cc3)cc2)CC1` is reported as -1% (enzyme activity, inhibitor; 0.1 µM).
With `COc1ccc(O)cc1-c1c[nH]c2ncc(-c3cncc(C(=O)N(C)C)c3)cc12` the inhibition was 0.77% (binding, competition with immobilised ligand; 0.2 µM).
`Cc1cnc2nc1Nc1cccc(c1)COC/C=C/COCc1cc(ccc1OCCN1CCOCC1)N2` has a remaining binding of 54% (binding; 0.1 µM).
`COc1cc(Nc2nc(C)cc(-c3cnn4nc(OC)ccc34)n2)cc(C(F)(F)F)c1` gave a remaining activity of 87% (inhibitor; 1 µM; relative to: control).
`CCn1cc(C(=O)O)c(=O)c2c(N)c(F)c(NC3CCCCC3)cc21` has an inhibition of 9.1% (kinase activity; 0.1 µM, with: ATP at Km).
`Cc1ccc(-c2c(/C=C(\C#N)C(=O)NC(C)C)n(CCCO)c3ncnc(N)c23)cc1` has a remaining binding of 61% (cell-free assay, competition with immobilised ligand; 1 µM).
`Nc1ncc2c(n1)-c1c([nH]c3ccc(C4=CCOCC4)cc13)CCC2` has a remaining binding of 100% (binding, competition with immobilised ligand; 1 µM).
For `CNC(=O)C1CCN(c2cc(C)c(F)cc2NC(=O)c2ccc(-c3cc(O)ccc3C)c(C)c2)CC1`, the remaining binding was 17% (binding, competition with immobilised ligand; 1 µM).
For `C=CC(=O)Nc1cc(-c2nn(C3CCN(CCNC(=O)[C@H](C)CCC45CC6CC(CC(C6)C4)C5)CC3)c3ncnc(N)c23)ccc1Oc1ccccc1`, the inhibition was 16.5% (inhibitor, KiNativ profiling; biochemical; 2 µM).
`CNC1C[S+]2CC[S+]3CC[S+](C1)[Ru-4]321([N]=C=S)[n]2c3ccc(OC)cc3c3c4c(c5cc(F)c[n+]1c5c32)C(=O)NC4=O` (stereo not drawn) has a remaining binding of 14% (KinomeScan; 0.1 µM; relative to: untreated).
The remaining binding of `CCN1CCN(Cc2ccc(C(=O)Nc3ccc(C)c(NCc4cnc5[nH]ccc5c4OC)c3)cc2C(F)(F)F)CC1` is reported as 3.9% (binding, competition with immobilised ligand; 1 µM).
`COc1cc(Nc2nccc(-c3cnn4nc(OC)ccc34)n2)cc(C(F)(F)F)c1` has a remaining binding of 94% (binding, competition with immobilised ligand; 1 µM).
For `N[C@H]1CC[C@H](Nc2nccc(-c3cccnc3Oc3ccc(NC(=O)NC4CC4)c4ccccc34)n2)CC1`, “log2 LFQ intensity” read 29.6 and 29.7 (kinobead competition pulldown; HEK293/HCT116 lysate mixture; 10 µM, 1 h, 4 °C; lower = stronger competition).
For `CC(C)=CC1OC(C)(C)C2C=C3C(=O)C(Cl)=CC(O)C3C3C(O)C4OC4C(=O)C132` (stereo not drawn), the remaining binding was 93% (cell-free assay, competition with immobilised ligand; 10 µM).
The remaining binding of `C=CC(=O)N1CCc2ccc(-n3c(=O)ccc4cnc5ccc(-c6cnn(C)c6)cc5c43)cc21` is reported as 76% (KINOMEscan; 1 µM; relative to: DMSO control).
For `O=C(Cc1ccc(OCc2ccccc2)cc1)NC1(C(=O)O)CCN(C(=O)c2ccc(-c3cccc(Cl)c3)cc2)CC1`, “activity vs control” read 110% (enzyme activity, inhibitor; 10 µM).
For `COc1c(Cl)cccc1Nc1c(-c2ccncc2C#C[C@@]2(C)CCCN2C(=O)/C=C/CN(C)C)[nH]c2c1C(=O)NCC2`, the remaining binding was 68% (binding, competition with immobilised ligand; 3 µM).
